Measured values of several laboratories.
A part holds a random share of what one study measured. Changes are numbered by the printed parent chain.

Set 1
Target: Histone acetyltransferase KAT6A, both winged helices, GST fusion (KAT6A, Homo sapiens, UniProt Q92794, residues 1-181)
Technique: protein binding microarray
Form: double-stranded DNA, one strand shown
Medium: in vitro
Concentration: not given
Notes: 8-mer, flanks averaged, mean of 2 arrays, mostly near background
Baseline: not given
Reading: higher = stronger binding
Residues (chain): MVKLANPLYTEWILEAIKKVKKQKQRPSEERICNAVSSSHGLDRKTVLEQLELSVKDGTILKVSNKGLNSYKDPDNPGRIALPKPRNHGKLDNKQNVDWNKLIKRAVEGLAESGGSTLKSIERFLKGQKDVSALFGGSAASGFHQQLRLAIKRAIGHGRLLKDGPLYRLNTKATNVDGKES
Sequence | E-score
ACCGAAGA | -0.103
TAGACAGA | -0.189
CAGAAAGA | -0.143
ACGTGCCT | -0.119
AAGCCCTA | -0.13
ATAAATGG | -0.112
CAGCTGCC | 0.0165
CGGAACTC | 0.112
GTGTCCAA | -0.125
ACAGGGTA | -0.156
GCATAACC | 0.0427
AGACTTCG | -0.208
ACAGCGAC | 0.126
CGCAGTGC | 0.207
CGATATAC | 0.0516
AAGACCTG | -0.266
GTGATAAC | -0.0152
AAAGCTAG | -0.282
TACGCGGA | 0.281
AACGCATT | 0.205
CTAGGAAG | -0.118

Set 2
Target: Phosphate system positive regulatory protein PHO4, full length, GST-tagged (PHO4, Saccharomyces cerevisiae, UniProt P07270, residues 1-312)
Technique: competition protein-binding microarray
Form: double-stranded DNA, one strand shown
Medium: in vitro
Concentration: 2 µM
Notes: whole 60-bp probe, lowest competitor level
Added: Cbf1 competitor, 0.05 µM
Reading: higher = stronger binding
Construct (chain): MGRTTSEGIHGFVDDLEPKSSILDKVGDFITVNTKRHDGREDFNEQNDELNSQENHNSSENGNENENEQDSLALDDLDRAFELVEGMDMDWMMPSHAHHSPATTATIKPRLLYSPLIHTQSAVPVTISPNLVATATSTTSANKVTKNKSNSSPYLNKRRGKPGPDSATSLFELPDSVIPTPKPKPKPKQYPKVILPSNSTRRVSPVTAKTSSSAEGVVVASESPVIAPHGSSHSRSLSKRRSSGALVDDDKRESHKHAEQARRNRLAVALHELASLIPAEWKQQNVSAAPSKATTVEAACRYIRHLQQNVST
Sequence | fluorescence intensity [a.u.]
TCGCTCTTCGCTCTGAATGTGACGGCAAATTTCGACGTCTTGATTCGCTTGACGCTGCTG | 3810
AGGTGCAGCCCCTGCCACGTGGGATGCGGTGTGCCCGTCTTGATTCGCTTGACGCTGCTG | 17500
CGTCCTAGCGATTGATGGGTGGGTGCCATGAGGAAGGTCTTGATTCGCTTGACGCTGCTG | 6490
TTCGGGTGCCAATTTAGCGTGCTTTGATCTAACTATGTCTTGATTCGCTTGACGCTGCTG | 5670
CGTTTGTAATACCATCACGTGCAAAATCTTCTCTTCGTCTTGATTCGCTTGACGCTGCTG | 14800
CCGCCCTTCTTCCGTCCCGTGCGGAAGGGGGGCGCGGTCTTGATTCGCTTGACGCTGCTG | 6010
CATTGCTAGCTCCTCTCCGTGACGGTTATTCAGTGTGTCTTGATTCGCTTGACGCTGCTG | 4240
CGTCCTAGCGATTGACTGGTGGGTGCCATGAGGAAGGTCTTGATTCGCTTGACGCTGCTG | 6920
TACCAGCACTTATAACAAATGATGACAGTAAGCGCAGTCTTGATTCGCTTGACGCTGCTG | 3960
CCATTCCAACCAATGGATGTGACGCTCCAAGAGAAAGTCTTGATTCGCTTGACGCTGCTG | 3730
CAAGGGATCCTCATTCTCGTGGTCGTAGGTGGGTTGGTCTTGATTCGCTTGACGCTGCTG | 6910
CCTCTGAGAGCGAGTCACGGCCCGCTGAAGGGAAAGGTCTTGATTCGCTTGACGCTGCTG | 3100
CAGGGGGAGCAAGTGCATGATCAGAAGGACCAATCTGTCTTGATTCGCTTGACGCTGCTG | 5520
CTTTCCGGTTCGGGCCAGGTGACGGAAATCGTTCTGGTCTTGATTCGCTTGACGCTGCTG | 3340
GTAACTTGGCGCTCTCTCGTGCCAGTGGTGATTTTGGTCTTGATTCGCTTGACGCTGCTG | 7340
TCCCAAGGCCACCGTCACGATTGAAGGTTCCCGGTCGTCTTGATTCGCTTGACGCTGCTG | 3810
TGCGCAACAACTTGTCACAACACTTTATGTCTAGAAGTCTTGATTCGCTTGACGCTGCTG | 3800
GTCTTGTCTCATTGTCACCCCACTTTCCCCACTTCAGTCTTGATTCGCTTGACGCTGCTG | 4680
TTGCTAACGGATTAAAACGTGTGGAATTATTGTTGCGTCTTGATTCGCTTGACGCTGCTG | 11600
TAGTCTGCGGAGAGCAACGTGCAAAAACTAAAGGTAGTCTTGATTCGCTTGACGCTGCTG | 12300
AAAGCGGTAATTTGTCACACCACTTCACATATCTATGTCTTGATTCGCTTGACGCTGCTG | 4610
CGTTGCTTATTAAGTGACATGACGCTATTGTATTGTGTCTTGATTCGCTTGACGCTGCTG | 5080
AAAGCGGTAATTTGTGAGGTGGGTGCAGATATCTATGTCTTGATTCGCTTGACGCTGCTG | 4220
CGGGGTTAAGTTTGCCATGTGGGTGGCTTGCAGCAGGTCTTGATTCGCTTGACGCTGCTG | 11100
AAATTACTAAGTTTTCACGTGACTTACCCCGTATGAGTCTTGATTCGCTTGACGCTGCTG | 11800

Set 3
Target: RNA binding protein fox-1 homolog 2, RRM domain, GST-SBP tag (RBFOX2, Homo sapiens, UniProt O43251-10, residues 100-194)
Technique: RNA Bind-n-Seq
Form: RNA
Medium: in vitro
Concentration: 365 nM
Notes: natural RNA segment, single round, ends assumed
Baseline: no-protein control
Reading: higher = stronger binding
Target sequence (chain): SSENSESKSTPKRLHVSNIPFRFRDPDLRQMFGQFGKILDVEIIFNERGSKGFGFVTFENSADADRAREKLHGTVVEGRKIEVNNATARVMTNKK
Sequence | RBNS enrichment (R)
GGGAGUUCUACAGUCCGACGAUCUCGAGAAUGAAGACUGCAGUCAGGAUCAAAUCAAGUCACAGAAGCCAUAUUCAUGCAGGUGCUAACCGCCUUUUCUACUGGUGCAACUGAAAGGAAUAUGGUAACAUGGUUGGAAUUCUCGGGUGCCAA | 0.66
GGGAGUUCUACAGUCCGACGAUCAAAUGCCACUGUGAUCCACAGCUGAAGUUGUUUCUAAUUGCCUAAAGGCAGUCUCUGUGUCUGGAGCUUCAAAGAGACAGGCAGACCUGCACUAAUUCCCUUCUUCCUCUUGGAAUUCUCGGGUGCCAA | 0.35
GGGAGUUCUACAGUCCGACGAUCUGUGCAAAAGGUGGGAGACAGAGCUGGACCUGCAGGGGUGGUCCCGCCACAACCCUGCGUGUGGACCCUGGCAGGGGGGGGUGCCAGGCCCCUGGAAAGCAGGGGUUACCUGGAAUUCUCGGGUGCCAA | 0.622
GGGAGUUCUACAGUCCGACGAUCAAGAAAGUGCUCCUGAGAAGGCUCUUGCCAGAAGCCUGAUGUGAGUGUGUGGCACCUGUGAUGGCAGGGCUGUGAGCUGGGCUUCUGUCCUCCUCUGUGUCCCGGCAUGGUGGAAUUCUCGGGUGCCAA | 4.98
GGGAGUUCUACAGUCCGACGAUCCUCCGCCUCCCGACCAGAGGGGUCCCUCAUGCCUGGCUGGCAGCCUCCUGGCAAGUGAGAAAGCCCUUUAUGCAGCAAUAUAUCAUAGCAGGUGGCUGGGGACACUGCAUUGGAAUUCUCGGGUGCCAA | 0.453
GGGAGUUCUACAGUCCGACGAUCCUCUCCCCCUGCUGUCUGCAGCCCCUCCCCGGGGAGUUGGUGCUUUCUUUUCCUUUUUUUUUUUUUUCCAGGGGGAGGGAGGAGAGGAAGGAGGGGGAUCAGAGCUGUCCUGGAAUUCUCGGGUGCCAA | 0.905
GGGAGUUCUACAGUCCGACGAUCAUCAGAAAAGUCAUUGGCAGACAUAUAUGUCCUUGAACCUUUUUUAUUUGUGUGGAUUCUGCUCAUCACUGUCUCUGUUAGACUUAUUUUGUAGUGGCUGCAUCACAUAUUGGAAUUCUCGGGUGCCAA | 0.576
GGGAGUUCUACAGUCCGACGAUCACAAAACGAAACAAACCUCUCCAGUCUCUAAUUUAUGCCUAUGCAAAAAAUAAAGGAUGCCCAGGAUAUUGGAGUGUGCUUUUUUCUGGUUGUCACAGAGCAACUCAGCUUGGAAUUCUCGGGUGCCAA | 0.606
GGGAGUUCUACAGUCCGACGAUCAGUGAAGACCUUAUUAAUAGGAGCAUAAUUGCGAGGGAGAAUCAUGGUUCUGCAGUCUGGUGUAGACACUGGAAUAACAGCACAGAAAAAUCUAUGACUCCCAAUAUCUUUGGAAUUCUCGGGUGCCAA | 0.283
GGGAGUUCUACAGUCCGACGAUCUCGGUUCUCCUCUUCCUCCACGCCGCCCCCUGAGCCCCCCUACAUCGGUCCCCCUGCUGCUCUGUCCACUACAAGGUCAGCCACCUGCCAGGAGGCCACAGACAACAGGAUGGAAUUCUCGGGUGCCAA | 0.41
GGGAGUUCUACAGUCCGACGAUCGUGUGGACUUCUCAUCUAAAAGGUUAGUGGCUUUUGCUUGGGAUCAGUGCUCUCUAUUGAUGUUCUUGCUGGUCUCCAGACACAUUCCUGUUGCAUUAAGACUUGAAAGAUGGAAUUCUCGGGUGCCAA | 1.01
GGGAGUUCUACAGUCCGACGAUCUUAGGUAUGCCUACCAAACAUCCAAAGGUAGACGUGGAGACAUUUUAAUACUACAAAACUAGGAAAAUCAGAACUCAUGGCCAUUUCCUGCCCUCCUCCAACUUGUUAAAUGGAAUUCUCGGGUGCCAA | 0.372

Set 4
Target: CCNB2, cyclin fold, Cln2 fusion (human)
Technique: yeast growth competition, sequencing
Medium: yeast
Notes: weak parent motif
Baseline: not given
Reading: higher = stronger binding
Starting sequence: GMNC docking peptide (human); KNAKRNLSSEFAN
Substitution | normalised enrichment score
KNAKRNLSSEFNN [A12N] | 0.658
KNAKRNLSSEKAN [F11K] | 0.236
KDAKRNLSSEFAN [N2D] | 0.403
KNAKRNLSVEFAN [S9V] | 0.812
KHAKRNLSSEFAN [N2H] | 0.532
KNAKRNASSEFAN [L7A] | 0.774
KNAKRNLSSEFGN [A12G] | 0.187
KNAKRNLSYEFAN [S9Y] | 0.39
KNAKRNLSSEIAN [F11I] | 0.0589
KNAKRNKSSEFAN [L7K] | 0.699
KNHKRNLSSEFAN [A3H] | 0.404
KNAKRILSSEFAN [N6I] | 0.241
KNIKRNLSSEFAN [A3I] | 1.76
KNAKRNLSHEFAN [S9H] | 0.485
KNFKRNLSSEFAN [A3F] | 0.284
KRAKRNLSSEFAN [N2R] | 0.691
KNAKRNLSKEFAN [S9K] | 0.318
KNAKWNLSSEFAN [R5W] | 0.397
KNAKHNLSSEFAN [R5H] | 0.184
KNAKRNLWSEFAN [S8W] | 0.771
KNDKRNLSSEFAN [A3D] | 0.134
KNAKRNYSSEFAN [L7Y] | 0.45
KNAKRNLSSEQAN [F11Q] | 0.303
KNAKRNLSSYFAN [E10Y] | -0.33
KNAKRNLSSEFDN [A12D] | 0.349
